Results pooled from the literature.
Every numbered part comes from another study and shows a few of its results, in no order. Substitutions count along the parent as printed.

Series 1 — method: RNA Bind-n-Seq; form: RNA; sample: in vitro; concentration: 1 µM; notes: whole 134-nt RNA, ends assumed; added: 150 mM KCl; reference: input library; direction: higher = stronger binding; quantity: log2 enrichment
Target: Ras GTPase-activating protein-binding protein 1, RRM domain (G3BP1, Homo sapiens, UniProt Q13283)
Chain of UniProt Q13283 (whole entry, looked up): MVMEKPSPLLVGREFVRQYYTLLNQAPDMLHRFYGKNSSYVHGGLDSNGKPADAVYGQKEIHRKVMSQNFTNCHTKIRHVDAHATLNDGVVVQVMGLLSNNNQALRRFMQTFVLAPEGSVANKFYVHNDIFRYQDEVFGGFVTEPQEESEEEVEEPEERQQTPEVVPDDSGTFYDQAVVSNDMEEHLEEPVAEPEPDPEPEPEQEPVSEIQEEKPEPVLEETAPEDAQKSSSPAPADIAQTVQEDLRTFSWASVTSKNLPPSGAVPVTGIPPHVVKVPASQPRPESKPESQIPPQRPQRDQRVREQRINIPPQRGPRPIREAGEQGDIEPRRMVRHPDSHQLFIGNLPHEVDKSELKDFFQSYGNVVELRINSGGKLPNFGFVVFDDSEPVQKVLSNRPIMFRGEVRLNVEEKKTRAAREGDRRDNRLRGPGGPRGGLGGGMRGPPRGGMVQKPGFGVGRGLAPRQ
Oligonucleotide = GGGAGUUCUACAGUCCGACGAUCGCAGGAAGUAAAAACAAAUGGAAAUGCUUCGGAUAGUGGCAGGGGUGGGGAUUGCUAAGGAAAGGGUGGGAUGGGAGUGGGUAAAGAGUUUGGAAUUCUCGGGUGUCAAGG; value = 1.37
Oligonucleotide = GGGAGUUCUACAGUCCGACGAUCUCAAGUCCUGUGCUACACAUCGUAUGUACCGAAUCGGGAGGGUGGGAAAAAGGGAAAGUAUUAUGUUACGCCGUUCGGAUCUGCACUUCCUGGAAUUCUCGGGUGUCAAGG; value = 0.584
Oligonucleotide = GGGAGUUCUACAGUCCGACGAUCCAAGUCCUGUGCUACACAUCGUAUGUACCGAAUCGGGGAAAGGGGAGGGGUGGGGAAAGUAUUAUGUUACGCCGUUCGGAUCUGCACUUCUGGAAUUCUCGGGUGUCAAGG; value = 1.18
Oligonucleotide = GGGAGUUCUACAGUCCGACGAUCUGGGAGGUGGAUUUUGUUUAUUUUUUUAGCUCAUUUCCAGGGGUGGGAAUUUUUUUUUAAUAUGUGUCAUGAAUAAAGUUGUUUUUGAGAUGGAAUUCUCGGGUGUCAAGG; value = 1.45
Oligonucleotide = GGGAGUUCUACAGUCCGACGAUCUCAAGUCCUGUGCUACACAUCGUAUGUACCGAAUCGGGUGGGAAAAAGGGAGGGAAAGUAUUAUGUUACGCCGUUCGGAUCUGCACUUCCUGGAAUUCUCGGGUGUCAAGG; value = 0.727
Oligonucleotide = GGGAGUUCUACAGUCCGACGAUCAGUCCUGUGCUACACAUCGUAUGUACCGAAUCGGAAAAAGGAAAAAGGGAAAAAGGGAAAGUAUUAUGUUACGCCGUUCGGAUCUGCACUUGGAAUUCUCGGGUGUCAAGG; value = -0.149
Oligonucleotide = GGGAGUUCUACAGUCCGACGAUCCACAGACAACACGCACCCACACAGACACAGAGGGAAGGGGUUGGGAUGGGGACAGGGUGCACAGCAGGGCGGGGUAGGACCCCAGCGCCUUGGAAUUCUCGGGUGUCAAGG; value = -0.252
Oligonucleotide = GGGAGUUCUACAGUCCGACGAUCUCCUCAAGUCCUGUGCUACACAUCGUAUGUACCGAAUCGGAGGGAGGAGGGGAAAGUAUUAUGUUACGCCGUUCGGAUCUGCACUUCCAGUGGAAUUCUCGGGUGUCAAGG; value = -0.0992
Oligonucleotide = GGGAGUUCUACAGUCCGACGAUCCAAGUCCUGUGCUACACAUCGUAUGUACCGAAUCGGAAAGGAAAAAGGUUUUUGGAAAGUAUUAUGUUACGCCGUUCGGAUCUGCACUUCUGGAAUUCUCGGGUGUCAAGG; value = -0.201
Oligonucleotide = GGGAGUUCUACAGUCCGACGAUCUGUGUGCAUUCCCUGCGCCAAGGGCUUCCCCAGCUCUGAGCAGCUCAAUGCGCACGUGGAGACUCACACGGAGGAAGAGCUGUUCAUCAAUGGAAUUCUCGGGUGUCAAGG; value = -0.271
Oligonucleotide = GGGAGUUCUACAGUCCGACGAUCCUGUGCUACACAUCGUAUGUACCGAAUCGGGGUUUUUUUGGGUUUUUUUGGUUUUUUUGGGAAAGUAUUAUGUUACGCCGUUCGGAUCUGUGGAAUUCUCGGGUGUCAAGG; value = -0.272
Oligonucleotide = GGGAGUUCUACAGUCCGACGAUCUGGGAGGUGGAUUUUGUUUAUUUUGUUAGCUCAUUUCCAGGGGUGGGAAUUUUUUUUUAAUAUGUGUCAUGAAUAAAGUUGUUUUUGAAAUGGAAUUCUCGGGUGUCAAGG; value = 1.75
Oligonucleotide = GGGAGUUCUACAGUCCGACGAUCACCAUGCAGGUGGGCAUCUUUGGGAAGUGGGGCAAGGGGGGGAUAGGGAGGGGGGUAACACUUUGGGAACAGGUGGUCCCAGGUCGUUACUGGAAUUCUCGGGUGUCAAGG; value = 0.854
Oligonucleotide = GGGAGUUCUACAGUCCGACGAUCGCAGGAAGUAAAAACAAAUGUAAAUGCUUCGGAUAGUGGCAGGGGUGGGGGUUGCUAAGGAAAGGGUGGGAUGGGAGUGGGUAAAGAGUUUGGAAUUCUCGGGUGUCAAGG; value = 1.27

Series 2 — target: CCNB1, cyclin fold, Cln2 fusion (human); method: yeast growth competition, sequencing; sample: yeast; notes: weak parent motif; reference: not given; direction: higher = stronger binding; quantity: normalised enrichment score
Starting sequence: CDC25A docking peptide (human); PPHRRRLLFACSP
Change = L8Y; value = 1.04
Change = A10S; value = 0.546
Change = S12L; value = 1.12
Change = R6K; value = 0.242
Change = P13K; value = 0.369
Change = P2W; value = 0.583
Change = R6P; value = -0.678
Change = P1S; value = 0.19
Change = S12P; value = 0.78
Change = A10R; value = 0.824

Series 3 — method: protein-binding microarray; form: double-stranded DNA, one strand shown; sample: in vitro; concentration: 250 nM; notes: 60-bp whole probe; added: salmon DNA 0.4 mg/ml; reference: random background probes; direction: higher = stronger binding; quantity: log fluorescence; all sequences stand within: GCCTAGCAC … GTCTTGATTCGCTTGACGCTGCTG
Target: Interferon regulatory factor 7, full length, phosphomimetic (IRF7, Homo sapiens, UniProt Q92985, residues 1-503, S101K/S471D/S472D/S475D/S476D/S477D/S483D/S484D/S487D)
Construct (chain): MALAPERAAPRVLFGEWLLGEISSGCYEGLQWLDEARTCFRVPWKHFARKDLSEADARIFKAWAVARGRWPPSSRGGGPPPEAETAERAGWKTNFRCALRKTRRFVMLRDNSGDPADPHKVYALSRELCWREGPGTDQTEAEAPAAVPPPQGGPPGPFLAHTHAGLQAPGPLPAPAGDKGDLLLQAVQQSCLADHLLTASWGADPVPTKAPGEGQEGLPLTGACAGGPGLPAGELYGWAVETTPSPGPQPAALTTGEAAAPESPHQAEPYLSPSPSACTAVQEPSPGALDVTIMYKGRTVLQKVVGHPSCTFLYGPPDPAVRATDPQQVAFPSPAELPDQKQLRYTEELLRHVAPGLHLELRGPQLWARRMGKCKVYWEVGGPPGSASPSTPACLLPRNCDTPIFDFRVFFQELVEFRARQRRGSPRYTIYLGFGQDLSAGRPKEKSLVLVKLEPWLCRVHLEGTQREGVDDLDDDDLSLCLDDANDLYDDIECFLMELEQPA
Oligonucleotide = GACGGTTTCGGTTCCGGGCCGTGCTAG; value = 11.9 z-score
Oligonucleotide = GACTGTTTCCTTTCCCTGACGTGCTAG; value = 2.84 z-score
Oligonucleotide = TTCCCAATGGTCTTTCCACTTGTGCTA; value = 1.23 z-score
Oligonucleotide = GCGGTTGGATCACAAGGTCAGTGCTAG; value = -0.797 z-score
Oligonucleotide = TTAGATTTCAGTTTCGACTAGTGCTAG; value = 4.97 z-score
Oligonucleotide = GACGGTTTCTGTATCGGGACGTGCTAG; value = 3.16 z-score
Oligonucleotide = GACGGACTGCTTTTCCTGATGTGCTAG; value = -0.0809 z-score
Oligonucleotide = GACGGTATCGGCATCGGGACGTGCTAG; value = -0.67 z-score
Oligonucleotide = TCAGCTTTCTTTTTGCAACTGTGCTAG; value = 0.974 z-score
Oligonucleotide = GACGATCTCAGTCTCGAGTCGTGCTAG; value = 1.38 z-score
Oligonucleotide = TTAGATATCAGACTGGGTTAGTGCTAG; value = -0.189 z-score
Oligonucleotide = TCACCTTCCTCTTTTACACTGTGCTAG; value = 1.2 z-score
Oligonucleotide = TTTGGTTCCGGTTTCGGTTAGTGCTAG; value = 11.6 z-score
Oligonucleotide = GACGGTCTCGGGTTCGGGACGTGCTAG; value = 2.4 z-score
Oligonucleotide = TCATTTTTATCAAATGTGACTGTGCTA; value = 0.686 z-score
Oligonucleotide = TTAGAACTGAGATTGGATTAGTGCTAG; value = -0.226 z-score
Oligonucleotide = GGCGATCTCAGTTTCGAGACGTGCTAG; value = 3.02 z-score

Mixed results
Molecule = PhoQ, residues 284 288 289 292 302 303 SLKLQV; target = PhoP, residues 12 14 15 18 19 SYFRT (Escherichia coli, UniProt P23836); test = Sort-seq, refers to: YFP reporter; system = E. coli; setting = PhoQ-PhoP variant library, added: 10 µM Mg2+; how to read = reference: high Mg2+ state, higher = stronger signaling; quantity = fold induction; value = 1.18

Repeated from above (series 1):
Oligonucleotide = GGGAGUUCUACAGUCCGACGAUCCUGUGCUACACAUCGUAUGUACCGAAUCGGGGUUUUUUUGGGUUUUUUUGGUUUUUUUGGGAAAGUAUUAUGUUACGCCGUUCGGAUCUGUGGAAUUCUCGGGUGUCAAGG; value = -0.272
Oligonucleotide = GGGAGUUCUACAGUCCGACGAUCCACAGACAACACGCACCCACACAGACACAGAGGGAAGGGGUUGGGAUGGGGACAGGGUGCACAGCAGGGCGGGGUAGGACCCCAGCGCCUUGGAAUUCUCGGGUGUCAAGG; value = -0.252
Oligonucleotide = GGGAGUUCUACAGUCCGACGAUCUCCUCAAGUCCUGUGCUACACAUCGUAUGUACCGAAUCGGAGGGAGGAGGGGAAAGUAUUAUGUUACGCCGUUCGGAUCUGCACUUCCAGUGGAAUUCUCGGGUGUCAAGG; value = -0.0992
Oligonucleotide = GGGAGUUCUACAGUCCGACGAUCUGUGUGCAUUCCCUGCGCCAAGGGCUUCCCCAGCUCUGAGCAGCUCAAUGCGCACGUGGAGACUCACACGGAGGAAGAGCUGUUCAUCAAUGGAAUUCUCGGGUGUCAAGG; value = -0.271
Oligonucleotide = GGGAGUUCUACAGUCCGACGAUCAGUCCUGUGCUACACAUCGUAUGUACCGAAUCGGAAAAAGGAAAAAGGGAAAAAGGGAAAGUAUUAUGUUACGCCGUUCGGAUCUGCACUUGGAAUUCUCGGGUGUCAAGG; value = -0.149
